Results of several laboratories.
Numbered parts are unrelated; each lists some results of a single study.

Study 1 — technique: protein-binding microarray; molecule type: double-stranded DNA, one strand shown; matrix: in vitro; tested at: 0.8 µM; setting: whole 60-bp probe, no competitor; direction: higher = stronger binding
Target: Centromere-binding protein 1, full length, N-terminal tag (CBF1, Saccharomyces cerevisiae, UniProt P17106, residues 1-351)
UniProt P17106, sequence (whole entry, looked up): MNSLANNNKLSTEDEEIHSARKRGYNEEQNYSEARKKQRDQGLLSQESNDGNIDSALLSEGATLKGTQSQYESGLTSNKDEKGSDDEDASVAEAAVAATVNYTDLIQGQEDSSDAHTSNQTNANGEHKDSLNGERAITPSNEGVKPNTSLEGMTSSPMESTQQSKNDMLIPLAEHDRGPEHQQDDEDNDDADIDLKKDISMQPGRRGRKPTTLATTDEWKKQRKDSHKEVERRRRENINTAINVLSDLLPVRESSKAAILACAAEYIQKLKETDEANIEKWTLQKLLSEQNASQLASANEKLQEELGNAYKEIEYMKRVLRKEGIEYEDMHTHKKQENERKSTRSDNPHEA
| Oligonucleotide | fluorescence intensity |
| --- | --- |
| GAATAAAGATGAGATCACGCCCAGATTTTGTCTTAGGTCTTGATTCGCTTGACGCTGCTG | 727 a.u. |
| CTATATGGACATAGATGCACCACGCGGTGTTTCTTCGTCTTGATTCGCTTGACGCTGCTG | 1100 a.u. |
| GAAAATTTGCCAAGTAACGTGTTCTTTGTGTGGTAGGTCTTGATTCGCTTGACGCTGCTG | 825 a.u. |
| CTAAGAAAAAAATACTAGGTGACATTTTAGAGATTCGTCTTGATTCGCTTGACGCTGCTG | 503 a.u. |
| GAACGTTGGAGCCATCTCCTGAATTCCATTTTATAGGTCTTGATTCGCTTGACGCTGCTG | 473 a.u. |
| CTATCGTTCCTCGCGCACGCGATTTTGCGTTCTTTCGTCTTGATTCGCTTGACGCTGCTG | 568 a.u. |

Study 2 — technique: aptamer microarray, sandwich; molecule type: DNA with 2'F-ANA; matrix: in vitro; tested at: 200 nM; together with: Cy3 exosite-II aptamer, 400 nM; direction: higher = stronger binding; oligonucleotide: GGTTGGTGTGGTTGG
Target: Prothrombin, mature alpha-thrombin (F2, Homo sapiens, UniProt P00734)
Setting: whole 15-mer aptamer, many near background
| Modification | mean fluorescence intensity |
| --- | --- |
| 2'F-ANA at 1 4 9 14 | 65.2 a.u. |
| 2'F-ANA at 9 12 15 | 847 a.u. |
| 2'F-ANA at 1 2 3 5 6 9 10 14 15 | 45.8 a.u. |
| 2'F-ANA at 5 6 8 9 10 14 15 | 46.9 a.u. |
| 2'F-ANA at 2 5 7 8 12 13 14 15 | 47.2 a.u. |

Study 3 — technique: protein binding microarray; molecule type: double-stranded DNA, one strand shown; matrix: in vitro; tested at: not given; baseline: not given; direction: higher = stronger binding
Target: Histone acetyltransferase KAT6A, winged helix 1, GST fusion (KAT6A, Homo sapiens, UniProt Q92794, residues 1-85)
Setting: 8-mer, flanks averaged, mean of 2 arrays, mostly near background
Target sequence (chain): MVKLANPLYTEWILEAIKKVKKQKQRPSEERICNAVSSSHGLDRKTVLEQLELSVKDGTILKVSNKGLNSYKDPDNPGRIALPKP
| Oligonucleotide | E-score |
| --- | --- |
| AACACGTA | -0.0283 |
| ACCACTTC | -0.128 |
| GAGACGAA | -0.0213 |
| ATATCAAC | -0.166 |
| AGTCATCC | -0.0717 |
| AAACCTTC | -0.199 |

Mixed results
| Molecule | target | assay | test system | setting | scale | measurement | result |
| --- | --- | --- | --- | --- | --- | --- | --- |
| PhoQ, residues 284 288 289 292 302 303 WSHMKI | PhoP, residues 12 14 15 18 19 LWHVM (Escherichia coli, UniProt P23836) | Sort-seq, measured: YFP reporter | E. coli | PhoQ-PhoP variant library, together with: 10 µM Mg2+ | baseline: high Mg2+ state, higher = stronger signaling | fold induction | 4.8 |

For quick reference, copied from above (study 2):
| Modification | mean fluorescence intensity |
| --- | --- |
| 2'F-ANA at 1 2 3 5 6 9 10 14 15 | 45.8 a.u. |
| 2'F-ANA at 9 12 15 | 847 a.u. |
